Experimental data from different studies.
Each line is one published result; not all experiments were run side by side. Numbers after ± are the reported error.
Organism: SARS-CoV-2

| Molecule | assay | test system | setting | EC50 [nM] |
| --- | --- | --- | --- | --- |
| COC(=O)C1=C(CN2CCN(C(=O)OC(C)(C)C)CC2)NC(=O)NC1c1ccccc1 (stereo not drawn) | plaque formation, plaque reduction | Vero E6 | 72 h | 36000 ± 13400 |
| CC(C)(C)NC(=O)N[C@H](C(=O)N1C[C@H]2[C@@H]([C@H]1C(=O)NC(CC1CCC1)C(=O)C(N)=O)C2(C)C)C(C)(C)C (stereo partly drawn) | viral cytopathic effect | Vero 76, USA-WA1/2020 | 120 h | 1900 |
| NC(=O)c1nnn([C@@H]2C(F)=C(CO)[C@@H](O)[C@H]2O)c1N | viral replication, spike protein immunostaining | Vero | 48 h | > 100000 |
| O=C(Nc1ccccc1F)c1cc2c(=O)n3ccccc3nc2n1Cc1ccccc1 | viral replication, qPCR | Vero E6 |  | 13.8 ± 1.98 |
| CC(C)=CC[C@@H](O)C1=CC(=O)c2c(O)ccc(O)c2C1=O | viral replication | Vero E6 | 96 h | > 100000 |
| Cc1cc(-c2ccc(/N=N/c3ccc4c(S(=O)(=O)O)cc(S(=O)(=O)O)c(N)c4c3O)c(C)c2)ccc1/N=N/c1ccc2c(S(=O)(=O)O)cc(S(=O)(=O)O)c(N)c2c1O | viral replication, high-content imaging screen |  | cell-based | > 100000 |
| CC(C)[C@H](NC(=O)[C@H](CCCNC(=N)N)NC(=O)N[C@@H](Cc1ccccc1)C(=O)O)C(=O)N[C@H](C=O)CCCNC(=N)N | viral replication | Vero C1008, prototype |  | 31500 |
| O=c1nc[nH]c2c1ncn2[C@H]1CC[C@@H](CO)O1 | viral RNA copies | Vero C1008, VOC-202012/01 | 48 h, 50% decrease endpoint | 3470 ± 150 |
| Cc1cc(O[C@@H](CCC(F)(F)F)c2ccc(C(=O)NCCC(=O)O)cc2)cc(C)c1-c1ccc(C(C)(C)C)cc1 | viral replication, GFP plate reader screen |  | cell-based | > 10000 |
| CC(C)CC(NC(=O)OCc1ccccc1)C(=O)NC(C(=O)NCC(=O)C=[N+]=[N-])C(C)C (stereo not drawn) | viral replication | Huh-7-ACE2, USA-WA1/2020 | 24 h | 6.9 |
| O=C[C@H](C[C@@H]1CCNC1=O)NC(=O)[C@H](CC1CCCCC1)NC(=O)c1cc2ccccc2[nH]1 | viral replication | Vero E6, 2019-nCoV-WIV04 | 10% human serum | 1100 |
| COc1cc([C@H]2OC[C@]3(O)[C@@H](c4ccc(O)c(OC)c4)OC[C@H]23)ccc1O | viral replication | mNeonGreen reporter |  | 24300 |
| N#C[C@@]1(n2ccc(N)nc2=O)O[C@H](CO)[C@@H](O)[C@H]1O | viral replication, cell-based | Washington |  | 500 ± 800 |
| Cn1cnc(Cn2c(=O)[nH]/c(=N\c3cc4cn(C)nc4cc3Cl)n(Cc3cc(F)c(F)cc3F)c2=O)n1 | viral replication | Vero C1008, WT replicon ΔS-E-M | 24 h | 15 |
| NC(CO)(CO)CCc1ccc(Sc2cccc(OCc3ccccc3)c2)cc1Cl | viral replication, GFP plate reader screen |  | cell-based | 3310 |
| CN(C)c1ccc(N(Cc2cc(Cl)cs2)C(=O)Cc2cncc3ccccc23)cc1 | viral replication | Calu-3, Omicron BA.2 |  | 300 |
| O=C[C@H](C[C@@H]1CCNC1=O)NC(=O)[C@H](CC1CCCCC1)N1C[C@@H](NC(=O)OCc2ccccc2)CCC1=O | viral replication | Vero C1008, USA-WA1/2020 |  | 18900 |
| CC(C)C[C@H](NC(=O)c1cc2c(F)ccc(F)c2[nH]1)C(=O)N[C@@H](C[C@@H]1CCNC1=O)C(=O)c1nc2cc(F)ccc2s1 | viral replication, RT-qPCR | VeroE6, WK-521 |  | 2700 ± 150 |
| C=C1C[C@@]23CC[C@H]4[C@@](C)(CCC[C@@]4(C)C(=O)O)[C@@H]2CC[C@@H]1C3 | viral replication | mNeonGreen reporter |  | 15100 ± 900 |
| COc1ccc2c(c1)N(CCCN(C)C)c1ccccc1S2 | viral replication, high-content imaging screen |  | cell-based | > 100000 |
| OCC1=C(F)[C@@H](n2nnc3c(NO)ncnc32)[C@H](O)[C@@H]1O | viral replication, spike protein immunostaining | Vero | 48 h | > 100000 |
| Cn1cnc(Cn2c(=O)[nH]/c(=N\c3cc4cn(C)nc4cc3Cl)n(Cc3cc(F)c(F)cc3F)c2=O)n1 | viral replication | Vero C1008, WT |  | 140 |
| CCc1ccc(NC(=O)c2cc3c(=O)n4ccccc4nc3n2C)cc1 | viral replication, qPCR | Vero E6 |  | 76.2 ± 9.73 |
| CC(C)(C)[C@H](NC(=O)C(F)(F)F)C(=O)N1C[C@H]2[C@@H]([C@H]1C(=O)N[C@H](C#N)C[C@@H]1CCNC1=O)C2(C)C | viral replication | Calu-3, Omicron BA.1 |  | 900 |
| NC(=O)c1c(NC(=O)c2cnn3c(C(F)(F)F)cc(-c4ccccc4)nc23)sc2c1CCCC2 | plaque formation, plaque reduction | Vero E6 | 72 h | 8100 ± 3400 |
| CC(C)(C)[C@H](NC(=O)C(F)(F)F)C(=O)N1C[C@H]2[C@@H]([C@H]1C(=O)N[C@@H](C[C@@H]1CCNC1=O)C(=O)c1nc3ccc(F)cc3s1)C2(C)C | viral replication | Vero C1008, JPN/TY/WK-521 (ancestral Wuhan) |  | 40 |

| Molecule | assay | test system | setting | EC50 [nM] |
| --- | --- | --- | --- | --- |
| O=c1nc(NO)ccn1[C@@H]1O[C@H](CO)[C@@H](O)[C@H]1O | qRT-PCR, measured: viral RNA in supernatant | Vero, Washington |  | 600 ± 300 |
| COc1ccc(NC2=NC(=O)CC(C(=O)NCc3ccccc3)N2)cc1 (stereo not drawn) | plaque formation, plaque reduction | Vero E6 | 72 h | > 50000 |
| COC1=CC(=O)N(C(=O)/C=C/[C@H](C)NC(=O)[C@H](CC(C)C)NC(=O)[C@H](CC2CCCCC2)NC(=O)C2CCN(C)CC2)[C@H]1Cc1c[nH]c2ccccc12 | viral cytopathic effect | A549-ACE2 |  | > 5000 |
| calpain inhibitor III | viral replication | 293T-ACE2, USA-WA1/2020 |  | 21 |
| Cc1ccc(C(=O)Nc2ccc(S(=O)(=O)O)c3cc(S(=O)(=O)O)cc(S(=O)(=O)O)c23)cc1NC(=O)c1cccc(NC(=O)Nc2cccc(C(=O)Nc3cc(C(=O)Nc4ccc(S(=O)(=O)O)c5cc(S(=O)(=O)O)cc(S(=O)(=O)O)c45)ccc3C)c2)c1 | virus-induced cytopathic effect | Vero E6, USA-WA1/2020 | 72 h | > 20000 |
| C[C@H]1COC2=C1C(=O)C(=O)c1c2ccc2c1CCCC2(C)C | viral replication, plaque reduction | Vero C1008 | 24 h | 700 |
| CC(C)/N=c1\cc2n(-c3ccc(Cl)cc3)c3ccccc3nc-2cc1Nc1ccc(Cl)cc1 | viral replication | 293T-ACE2, USA-WA1/2020 | 24 h | ~500 |
| COc1ccc(N(Cc2cc(Cl)cs2)C(=O)Cc2cncc3ccccc23)cc1 | viral replication | Calu-3, Omicron BA.2 |  | 3200 |
| COc1ccc(C(=O)Nc2ccccc2C(=O)NC(C(=O)Nc2ccccc2)C(C)C)cc1 (stereo not drawn) | plaque formation, plaque reduction | Vero E6 | 72 h | > 50000 |
| Cc1ccc(OCCN)cc1C(=O)N[C@H](C)c1cccc(-c2ccoc2)c1 | viral replication | Caco-2 | 24 h | ≤ 6000 |
| C#Cc1cccc(Nc2ncnc3cc(OCCOC)c(OCCOC)cc23)c1 | viral replication | Vero E6, USA-WA1/2020 |  | > 20000 |
| C[C@@H]1CN(c2ncc(C(O)CO)cc2Cl)CCN1c1nc2c(-c3cc(F)c(F)c(F)c3)cc(C(F)(F)F)cc2[nH]1 (stereo partly drawn) | viral replication | 293T-ACE2, USA-WA1/2020 | 24 h | 1900 |
| Nc1ncnc2c1ncn2[C@@H]1O[C@H](CSCc2ccc3ccccc3c2)[C@@H](O)[C@H]1O | viral replication, N protein immunofluorescence | Calu-3 | 24 h | > 200000 |
| NCC[C@H](Oc1ccc(C(F)(F)F)cc1)c1ccccc1 | viral replication, GFP plate reader screen |  | cell-based | 7590 |
| CCC(CC)COC(=O)[C@H](C)N[P@](=O)(OC[C@H]1O[C@@](C#N)(c2ccc3c(N)ncnn23)[C@H](O)[C@@H]1O)Oc1ccccc1 | viral replication | VeroE6/TMPRSS2 |  | 910 |
| CCN(CC)CCNC(=O)c1cc(Cl)c(NC(=O)COc2ccc(Cl)cc2)cc1OC | viral replication, high-content imaging screen |  | cell-based | > 100000 |
| O=C(NCc1ccc(F)cc1)C(=O)NCC(c1cccnc1)N1CCN(c2ccccc2)CC1 (stereo not drawn) | plaque formation, plaque reduction | Vero E6 | 72 h | 20900 ± 8500 |
| Fc1ccc(-c2ccc(CN3CCN(c4cccc5ccoc45)CC3)[nH]2)cc1 | viral replication | 293T-ACE2, USA-WA1/2020 | 24 h | 130 |
| CCOC(=O)C1=C(CN2CCC(NC(=O)OC(C)(C)C)CC2)NC(=O)NC1c1ccccc1 (stereo not drawn) | plaque formation, plaque reduction | Vero E6 | 72 h | > 50000 |
| CN(C)CCOC1=Cc2ccccc2Sc2ccc(Cl)cc21 | viral replication, GFP plate reader screen |  | cell-based | > 100000 |
| Cn1c(C(=O)Nc2ccc(Cl)cc2)cc2c(=O)n3ccccc3nc21 | viral replication | Vero E6 |  | 109 |
| CNCc1ccc(C)c(NC(=O)c2ccc(Nc3nc(-c4ccccc4)c4ccccc4n3)cc2)c1 | viral replication, high-content imaging screen |  | cell-based | > 100000 |
| [N-]=[N+]=N[C@]1(CO)O[C@@H](n2ccc(N)nc2=O)[C@@H](F)[C@@H]1O | viral replication | DBT-9-hACE2, USA-WA1/2020 nLuc reporter |  | 1800 to 6400 |
| C[C@@H]1CS/C(=N\NC(=O)C(=O)[C@H](NC(=O)C2CCCCCC2)C2CCOCC2)N1C | viral replication | Huh-7-ACE2, USA-WA1/2020 | 24 h | 78 |
| CCC(CC)COC(=O)[C@H](C)N[P@](=O)(OC[C@H]1O[C@@](C#N)(c2ccc3c(N)ncnn23)[C@H](O)[C@@H]1O)Oc1ccccc1 | viral replication | A549-ACE2-TMPRSS2, WA1 | 24 h | 60 |
